# Assay results from different studies.
# “And” joins repeats or separate records; there may be more than shown. ± marks the error that the study gave.
Structure (SMILES),assay,test system,conditions,how to read,endpoint,value
Cc1ccnc(NS(=O)(=O)c2ccc(NC(=O)c3cncc(Br)c3)cc2)n1,,aqueous buffer,pH 7.4,,thermodynamic solubility,146 µM
O=C(Nc1nc2cccc(-c3ccc(CN4CCS(=O)(=O)CC4)cc3)n2n1)C1CC1,refers to: rheumatoid arthritis,rheumatoid arthritis patients,"oral, 30 mg once daily, 4 weeks, any relatedness",,treatment-emergent adverse events,0%
CCOc1c([C@H](C)n2nc(C)c3c(N)ncnc32)cc(Cl)c(F)c1[C@@H]1CNC(=O)C1,refers to: QTcF ≤450 ms,previously treated B-cell malignancy,"oral, 45 mg once daily, overall population",,ECG observations,100%
CCN1CCN(Cc2ccc(Nc3ncc(F)c(-c4cc(F)c5nc6n(c5c4)[C@H](C)CCC6)n3)nc2)CC1,,"human, plasma","50 mg single dose, mean",,CL/F,34.2 L/h
COc1ccc2[nH]c([S+]([O-])Cc3ncc(C)c(OC)c3C)nc2c1 (centres unmarked),,"healthy Chinese volunteers, plasma","oral, 20 mg, enteric-coated capsules, CYP2C19 rapid metabolizers",,AUC(0-inf),249 ± 80.9 ng·h/mL
Cn1cncc1[C@@](N)(c1ccc(Cl)cc1)c1ccc2c(c1)c(-c1cccc(Cl)c1)cc(=O)n2C,,"healthy male humans, faeces","oral, 50 mg, [14C]-labelled",relative to: dose,unchanged drug excreted,6%
CCCc1ccc(-c2ccc(-c3cc(F)c(F)c(F)c3)c(F)c2)cc1,,"rat, placenta","1000 ng/mL in perfusate, middle dose, mixture of 21 LCMs",,median placental accumulation,4.18 ng/g
O=C(Nc1cnccc1Cl)N1CCN(Cc2ccc3c(c2)OC(F)(F)O3)CC1,refers to: Presyncope,human healthy young men,"25 mg, multiple dose",,adverse event incidence,0%
CN(C(=O)n1cnc(-c2ccc[n+]([O-])c2)c1)[C@H]1CC[C@H](O)CC1,,"Wistar rat, medulla oblongata","oral, 10 mg/kg of BIA 10-2474, 1 h, single dose",,concentration,11.9 ± 5.9 ng/g
Fc1cccc(F)c1-c1nc(N2CCC(c3ccccn3)C2)c2ccccc2n1 (centres unmarked),,Japanese Pharmacopoeia disintegration test solution 2,pH 6.8,,kinetic solubility,9 µg/mL
Cl.[2H]C([2H])([2H])CC(=O)c1cnc(NC(=O)C2CC2)cc1Nc1cccc(-c2ncn(C([2H])([2H])[2H])n2)c1OC,geometric mean,human,"oral, 17.5 mg single dose, fasted, liquid",,AUC(0-inf),1920 ng·h/mL
c1csc(CNc2cc[nH]n2)c1,"DNA damage, alkaline comet","Hsd:ICR(CD-1) mice, female, liver","oral gavage, 250 mg/kg/day, 3 days",,tail DNA (mean),5.8%
CNC(=O)c1cccc(-c2ccc(O[C@H]3O[C@H](CO)[C@@H](O)[C@H](O)[C@@H]3O)c(C)c2)c1,,"Sprague-Dawley rat, male, plasma","oral, 10 mg/kg",,AUC(all),22.1 ng·h/mL and 12.8 ng·h/mL and 34.6 ng·h/mL
COc1ccc2c(=O)n(C)c(-c3ccccc3)nc2c1,,"Sprague-Dawley rat, male, spleen","oral, 30 mg/kg, 0.5 h",relative to: spleen over plasma,tissue/plasma ratio,4.22
CNC(=O)c1ccccc1Nc1cc(Nc2ccc(N3CCOCC3)cc2OC)ncc1C(F)(F)F,,0.1% w/v Soluplus buffer,"24 h, pH 4.5, 37 °C",,solubility,> 180 µg/mL
CC(C)(C(=O)N1CCOc2c(C#N)cncc2C1)C(F)F,refers to: vessel puncture site pain,"healthy humans, both sexes","oral, 30 mg single dose",,subjects with TEAE,0%
CCCOc1ccc(NC(=O)CN2CCN(C)CC2)cc1-c1nc(CC)c(CC)c(=O)[nH]1,,healthy Chinese men,"10 mg, supine or semi-supine, together with: alcohol 0.5 g/kg",,AUEC(0-4 h) systolic BP,-12.6 ± 23.2 h·mmHg
Cn1cc(Nc2nccc(-c3ccc4c(c3)CN(C3COC3)CC[C@H]4NC(=O)c3cn(C(C)(C)C)nn3)n2)cn1,,"human, whole blood","50 mg twice daily, day 14",relative to: pre-dose baseline,CD4+ T cell count change,4.38%
C[C@@H](N)C1CCN(S(=O)(=O)c2cccc3cnccc23)CC1,,healthy volunteers,"25 mg, fasted",,participants with dizziness,0%
CCn1ncc2c1-c1cnc(N)c(c1)O[C@H](C)c1cc(F)ccc1-c1nn(C)nc1C2,,"female athymic nude mice, sample B PDX","oral, 15 mg/kg once daily for 1 days, 12 h",,unbound plasma trough concentration,200 ± 17 nM

# A few entries again:
Structure (SMILES),assay,test system,conditions,how to read,endpoint,value
CC(C)(C(=O)N1CCOc2c(C#N)cncc2C1)C(F)F,refers to: vessel puncture site pain,"healthy humans, both sexes","oral, 30 mg single dose",,subjects with TEAE,0%
COc1ccc2[nH]c([S+]([O-])Cc3ncc(C)c(OC)c3C)nc2c1 (centres unmarked),,"healthy Chinese volunteers, plasma","oral, 20 mg, enteric-coated capsules, CYP2C19 rapid metabolizers",,AUC(0-inf),249 ± 80.9 ng·h/mL
CCOc1c([C@H](C)n2nc(C)c3c(N)ncnc32)cc(Cl)c(F)c1[C@@H]1CNC(=O)C1,refers to: QTcF ≤450 ms,previously treated B-cell malignancy,"oral, 45 mg once daily, overall population",,ECG observations,100%
